# Experimental data collected from several papers.
# Compare with care: the assays were run in different laboratories. Numbers after ± are the reported error.
# Organism: influenza A virus
SMILES,test,system,setting,scale,quantity,value
COc1cc(-c2oc3cc(O[C@@H]4O[C@@H](C)[C@H](O)[C@@H](O)[C@H]4O)cc(O)c3c(=O)c2O[C@@H]2O[C@H](CO[C@@H]3O[C@@H](C)[C@H](O)[C@@H](O)[C@H]3O)[C@@H](O)[C@H](OC(C)=O)[C@H]2O)ccc1O,hemagglutination,A/Vladivostok/2/09 (H1N1),,,IC50,152 ± 3 µM
Cc1cc(-c2ccccc2)n2nc(-c3nc4sc5c(c4c(=O)o3)CCCCC5)nc2n1,"plaque formation, plaque reduction","MDCK, A/PR/8/34",,,EC50,26 ± 1 µM
c1nc(N2CCCCC2)ncc1CNC12CC3CC(CC(C3)C1)C2,plaque reduction,"MDCK ST6Gal I, A/WSN/33 (H1N1)",2 days,,EC50,1.7 ± 0.5 µM
CCC1(O)C([N+](=O)[O-])=NNc2nc(C)nn21 (stereo not shown),,"MDCK, A/Puerto Rico/8/34 (H1N1)",,reference: CC50 over IC50,selectivity index,4
Cc1cn(C2CC(N(C)C)C(CO)O2)c(=O)[nH]c1=O (stereo not shown),viral cytopathic effect,"MDCK, H3N2",,,EC50,> 0.37 µM
COc1cc(-c2oc3cc(O)cc(O)c3c(=O)c2O[C@@H]2O[C@H](CO)[C@@H](O)[C@H](O)[C@H]2OC(=O)c2cc(O)c(O)c(O)c2)ccc1O,hemagglutination,virus panel,range over panel,,IC50,176 to 191 µM
CCC1(O)C([N+](=O)[O-])=NNc2ncnn21 (stereo not shown),,"MDCK, A/Puerto Rico/8/34 (H1N1)",,reference: CC50 over IC50,selectivity index,2
c1nc(N2CCCCCC2)cnc1CNC12CC3CC(CC(C3)C1)C2,cytopathic effect,"MDCK, A/WSN/33 H1N1",48 h,,EC50,1.9 µM
O=C1/C(=N\NC(=S)NN=Cc2cccs2)c2ccccc2N1Cc1ccccc1,"cytopathic effect, visual CPE score","MDCK, H1N1",,,EC50,> 4 µM
CCOC(=O)c1nc2n(n1)C(O)(CC)C([N+](=O)[O-])=NN2 (stereo not shown),,"MDCK, A/Puerto Rico/8/34 (H1N1)",,reference: CC50 over IC50,selectivity index,1
CCCCCCCCCC(=O)OCC1OC(n2cc(C)c(=O)[nH]c2=O)CC1N(C)C (stereo not shown),viral cytopathic effect,"MDCK, H3N2",,,EC50,> 0.23 µM
OC12CC3CC(C1)CC(NCc1cnc(N4CCCCC4)nc1)(C3)C2,"viral replication, plaque reduction",A/California/07/2009 H1N1,,,EC50,4.7 ± 0.8 µM
CCC1(O)C([N+](=O)[O-])=NNc2nc(SC)nn21 (stereo not shown),,"MDCK, A/Puerto Rico/8/34 (H1N1)",,reference: CC50 over IC50,selectivity index,13
COc1cc(-c2oc3cc(O)cc(O)c3c(=O)c2O[C@@H]2O[C@H](CO)[C@@H](O)[C@H](OC(C)=O)[C@H]2O)ccc1O,hemagglutination,A/Vladivostok/2/09 (H1N1),,,IC50,157 ± 2.1 µM
Cc1nc2n(n1)C(C)(O)C([N+](=O)[O-])=NN2 (stereo not shown),,"MDCK, A/Puerto Rico/8/34 (H1N1)",,reference: CC50 over IC50,selectivity index,3
Cc1cc(-c2ccccc2)n2nc(C(=O)Nc3sc4c(c3C(N)=O)CCCCC4)nc2n1,"plaque formation, plaque reduction","MDCK, A/PR/8/34",,,EC50,21 ± 4 µM

# Excerpt of the above:
SMILES,test,system,setting,scale,quantity,value
CCC1(O)C([N+](=O)[O-])=NNc2nc(SC)nn21 (stereo not shown),,"MDCK, A/Puerto Rico/8/34 (H1N1)",,reference: CC50 over IC50,selectivity index,13
COc1cc(-c2oc3cc(O)cc(O)c3c(=O)c2O[C@@H]2O[C@H](CO)[C@@H](O)[C@H](OC(C)=O)[C@H]2O)ccc1O,hemagglutination,A/Vladivostok/2/09 (H1N1),,,IC50,157 ± 2.1 µM
